Results pooled from the literature.
Each numbered part is a random draw from the data of one study; scales do not carry over between parts. Values joined by “and” are separate records of one study, mostly repeats; a detail may differ.
UniProt P42336, sequence (whole entry, unmodified, looked up): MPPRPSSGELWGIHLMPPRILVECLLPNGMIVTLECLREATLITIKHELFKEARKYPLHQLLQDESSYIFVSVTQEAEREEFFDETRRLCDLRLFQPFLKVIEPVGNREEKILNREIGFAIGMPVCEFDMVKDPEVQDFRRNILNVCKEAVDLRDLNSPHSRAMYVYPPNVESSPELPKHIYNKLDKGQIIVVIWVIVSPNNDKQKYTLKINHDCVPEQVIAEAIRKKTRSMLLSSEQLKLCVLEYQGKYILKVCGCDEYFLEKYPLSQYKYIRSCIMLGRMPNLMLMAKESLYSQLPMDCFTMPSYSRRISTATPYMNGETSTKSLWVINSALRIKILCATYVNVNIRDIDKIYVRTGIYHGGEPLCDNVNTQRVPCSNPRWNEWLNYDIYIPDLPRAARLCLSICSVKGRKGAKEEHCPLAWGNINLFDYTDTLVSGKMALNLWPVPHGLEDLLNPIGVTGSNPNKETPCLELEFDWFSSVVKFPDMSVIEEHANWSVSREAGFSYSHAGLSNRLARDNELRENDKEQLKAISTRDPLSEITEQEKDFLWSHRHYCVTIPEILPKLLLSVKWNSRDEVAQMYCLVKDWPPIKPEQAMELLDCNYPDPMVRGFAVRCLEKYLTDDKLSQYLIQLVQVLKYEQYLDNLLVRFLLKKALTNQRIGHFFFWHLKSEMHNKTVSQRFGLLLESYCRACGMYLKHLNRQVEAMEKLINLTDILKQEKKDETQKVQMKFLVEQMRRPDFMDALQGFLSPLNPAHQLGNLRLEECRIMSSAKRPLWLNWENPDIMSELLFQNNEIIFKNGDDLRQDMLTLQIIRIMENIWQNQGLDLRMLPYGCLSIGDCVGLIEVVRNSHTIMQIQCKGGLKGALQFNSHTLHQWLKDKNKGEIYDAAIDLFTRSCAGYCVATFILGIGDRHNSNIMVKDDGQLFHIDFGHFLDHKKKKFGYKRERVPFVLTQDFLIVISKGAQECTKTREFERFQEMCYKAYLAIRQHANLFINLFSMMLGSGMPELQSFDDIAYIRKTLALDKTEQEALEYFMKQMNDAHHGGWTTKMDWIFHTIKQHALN
UniProt Q00535, sequence (whole entry, looked up): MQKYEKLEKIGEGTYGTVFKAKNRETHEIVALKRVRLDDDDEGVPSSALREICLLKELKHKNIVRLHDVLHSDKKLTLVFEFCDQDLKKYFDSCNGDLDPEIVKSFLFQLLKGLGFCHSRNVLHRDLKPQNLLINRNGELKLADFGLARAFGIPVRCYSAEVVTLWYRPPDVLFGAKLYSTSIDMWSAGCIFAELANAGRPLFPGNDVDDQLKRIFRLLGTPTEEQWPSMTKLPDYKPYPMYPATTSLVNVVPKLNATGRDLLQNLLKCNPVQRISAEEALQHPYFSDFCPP
UniProt P53355, sequence (whole entry, looked up): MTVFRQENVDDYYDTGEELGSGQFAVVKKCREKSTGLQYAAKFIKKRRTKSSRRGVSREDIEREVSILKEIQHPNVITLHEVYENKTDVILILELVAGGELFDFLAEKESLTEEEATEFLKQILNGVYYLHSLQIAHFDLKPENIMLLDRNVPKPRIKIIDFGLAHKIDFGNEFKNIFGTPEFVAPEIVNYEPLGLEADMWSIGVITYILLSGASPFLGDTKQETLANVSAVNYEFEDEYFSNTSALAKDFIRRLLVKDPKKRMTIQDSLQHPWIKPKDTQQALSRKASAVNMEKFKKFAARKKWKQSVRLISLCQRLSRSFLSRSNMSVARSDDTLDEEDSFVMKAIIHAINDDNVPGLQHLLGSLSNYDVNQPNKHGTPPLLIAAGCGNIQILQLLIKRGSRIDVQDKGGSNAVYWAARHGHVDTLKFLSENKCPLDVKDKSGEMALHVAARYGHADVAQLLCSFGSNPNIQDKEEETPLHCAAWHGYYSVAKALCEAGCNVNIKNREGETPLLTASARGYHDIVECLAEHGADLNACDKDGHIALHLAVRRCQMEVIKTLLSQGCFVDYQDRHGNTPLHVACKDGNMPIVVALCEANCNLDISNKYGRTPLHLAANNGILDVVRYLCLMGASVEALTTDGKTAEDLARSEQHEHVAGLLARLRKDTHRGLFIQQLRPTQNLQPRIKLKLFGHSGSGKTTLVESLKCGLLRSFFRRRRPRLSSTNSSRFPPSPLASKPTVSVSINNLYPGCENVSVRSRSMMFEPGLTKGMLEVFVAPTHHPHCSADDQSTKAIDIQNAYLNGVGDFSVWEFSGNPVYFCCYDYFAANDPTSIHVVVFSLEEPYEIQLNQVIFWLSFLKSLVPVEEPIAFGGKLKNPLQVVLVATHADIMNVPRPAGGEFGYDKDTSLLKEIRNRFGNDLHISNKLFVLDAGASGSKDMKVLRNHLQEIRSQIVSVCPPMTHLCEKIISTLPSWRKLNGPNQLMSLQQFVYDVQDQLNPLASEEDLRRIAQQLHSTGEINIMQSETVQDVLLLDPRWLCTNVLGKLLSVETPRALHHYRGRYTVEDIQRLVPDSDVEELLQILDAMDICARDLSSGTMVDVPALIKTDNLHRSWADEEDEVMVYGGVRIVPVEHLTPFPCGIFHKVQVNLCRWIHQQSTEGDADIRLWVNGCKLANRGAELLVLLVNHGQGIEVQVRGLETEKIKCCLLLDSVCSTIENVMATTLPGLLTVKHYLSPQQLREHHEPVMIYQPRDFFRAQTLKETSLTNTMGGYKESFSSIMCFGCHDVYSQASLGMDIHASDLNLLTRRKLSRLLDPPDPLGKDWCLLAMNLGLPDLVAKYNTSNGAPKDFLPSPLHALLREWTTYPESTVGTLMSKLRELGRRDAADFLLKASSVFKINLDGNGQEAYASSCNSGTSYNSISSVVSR
UniProt O95747, sequence (whole entry, looked up): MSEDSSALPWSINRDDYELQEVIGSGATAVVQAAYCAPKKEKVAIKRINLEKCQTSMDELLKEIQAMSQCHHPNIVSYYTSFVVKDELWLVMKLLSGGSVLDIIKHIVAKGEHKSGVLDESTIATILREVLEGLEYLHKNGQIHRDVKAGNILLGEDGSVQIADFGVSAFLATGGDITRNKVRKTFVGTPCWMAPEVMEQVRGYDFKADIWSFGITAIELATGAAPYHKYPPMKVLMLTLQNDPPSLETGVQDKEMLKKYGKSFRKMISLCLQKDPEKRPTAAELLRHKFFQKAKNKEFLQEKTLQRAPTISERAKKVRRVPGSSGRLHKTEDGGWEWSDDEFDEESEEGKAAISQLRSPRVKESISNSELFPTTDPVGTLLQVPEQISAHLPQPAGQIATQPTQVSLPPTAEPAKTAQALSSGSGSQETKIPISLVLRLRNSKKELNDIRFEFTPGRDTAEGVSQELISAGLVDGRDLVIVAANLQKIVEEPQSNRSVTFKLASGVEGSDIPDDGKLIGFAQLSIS
UniProt Q14164, sequence (whole entry, looked up): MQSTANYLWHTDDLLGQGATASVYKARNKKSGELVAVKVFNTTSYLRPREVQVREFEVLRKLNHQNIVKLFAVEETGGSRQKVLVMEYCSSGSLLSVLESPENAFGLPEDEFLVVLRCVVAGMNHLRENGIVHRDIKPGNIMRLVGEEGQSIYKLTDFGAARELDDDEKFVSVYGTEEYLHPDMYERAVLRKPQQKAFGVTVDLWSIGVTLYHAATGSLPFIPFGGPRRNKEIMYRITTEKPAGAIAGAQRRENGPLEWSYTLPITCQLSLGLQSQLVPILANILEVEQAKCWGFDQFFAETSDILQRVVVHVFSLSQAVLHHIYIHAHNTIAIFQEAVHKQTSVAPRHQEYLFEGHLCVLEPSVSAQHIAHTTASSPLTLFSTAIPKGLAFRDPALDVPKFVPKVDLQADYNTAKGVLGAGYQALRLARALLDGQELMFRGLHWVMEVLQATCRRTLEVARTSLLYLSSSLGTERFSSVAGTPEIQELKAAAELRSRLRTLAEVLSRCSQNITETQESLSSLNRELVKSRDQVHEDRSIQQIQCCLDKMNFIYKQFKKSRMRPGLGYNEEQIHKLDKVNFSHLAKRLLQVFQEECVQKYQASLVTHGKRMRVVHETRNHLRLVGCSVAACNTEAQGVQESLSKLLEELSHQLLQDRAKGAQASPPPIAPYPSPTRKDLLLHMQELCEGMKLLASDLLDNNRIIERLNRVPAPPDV
UniProt Q8TDR2, sequence (whole entry, looked up): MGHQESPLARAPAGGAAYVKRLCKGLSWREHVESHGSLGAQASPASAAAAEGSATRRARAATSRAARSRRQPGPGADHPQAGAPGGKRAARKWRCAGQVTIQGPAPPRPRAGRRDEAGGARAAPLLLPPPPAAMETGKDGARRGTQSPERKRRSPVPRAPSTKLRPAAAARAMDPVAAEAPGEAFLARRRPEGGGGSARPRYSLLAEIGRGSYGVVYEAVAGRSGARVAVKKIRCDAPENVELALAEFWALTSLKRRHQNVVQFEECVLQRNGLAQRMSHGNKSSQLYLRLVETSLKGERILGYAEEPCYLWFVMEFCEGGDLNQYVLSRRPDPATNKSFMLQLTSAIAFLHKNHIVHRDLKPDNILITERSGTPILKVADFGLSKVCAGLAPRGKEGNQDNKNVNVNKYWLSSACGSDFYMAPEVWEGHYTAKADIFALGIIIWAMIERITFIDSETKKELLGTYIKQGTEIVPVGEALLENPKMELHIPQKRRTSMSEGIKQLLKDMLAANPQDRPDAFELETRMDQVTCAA
UniProt Q9UIK4, sequence (whole entry, looked up): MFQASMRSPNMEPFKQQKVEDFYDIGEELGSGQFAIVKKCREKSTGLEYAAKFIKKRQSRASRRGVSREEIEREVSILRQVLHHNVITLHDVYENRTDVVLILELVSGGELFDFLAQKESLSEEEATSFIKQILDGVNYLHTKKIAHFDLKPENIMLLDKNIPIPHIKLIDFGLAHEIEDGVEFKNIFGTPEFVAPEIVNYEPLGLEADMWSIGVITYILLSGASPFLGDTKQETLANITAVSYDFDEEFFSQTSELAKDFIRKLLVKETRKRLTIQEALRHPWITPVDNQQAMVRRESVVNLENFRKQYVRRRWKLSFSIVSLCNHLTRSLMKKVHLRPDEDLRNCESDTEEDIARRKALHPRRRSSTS

Sample 1 — effect on: enzyme activity; mode: inhibitor; concentration: 0.5 µM; relative to: control; endpoint: remaining activity
Structure (SMILES): NC(=O)c1ccc(N(C(N)=O)c2c(F)cccc2F)nc1-c1ccc(F)cc1F
GRK3 (Homo sapiens, UniProt P35626): 98.1%
DAPK2 (Homo sapiens, UniProt Q9UIK4): 86.8%
CAMK2D (Homo sapiens, UniProt Q13557): 87.3%
Cyclin-dependent kinase 4, with cyclin D1 (CDK4, Homo sapiens, UniProt P11802): 96.8%
PRKCA (Homo sapiens, UniProt P17252): 86%
OXSR1 (Homo sapiens, UniProt O95747): 96.9%
TGFBR2 (Homo sapiens, UniProt P37173): 102%
DAPK1 (Homo sapiens, UniProt P53355): 98.2%
Tyrosine-protein kinase Lyn, isoform B (LYN, Homo sapiens, UniProt P07948): 106%
IKBKE (Homo sapiens, UniProt Q14164): 88%
STK11 (Homo sapiens, UniProt Q15831): 99.5%
CHEK2 (Homo sapiens, UniProt O96017): 97.6%
STK39 (Homo sapiens, UniProt Q9UEW8): 93.7%
MAP3K3 (Homo sapiens, UniProt Q99759): 118%
CAMKK2 (Homo sapiens, UniProt Q96RR4): 101%
PRKACA (Homo sapiens, UniProt P17612): 101%
TGFBR1 (Homo sapiens, UniProt P36897): 96.7%
cGMP-dependent protein kinase 1, isoform beta (PRKG1, Homo sapiens, UniProt Q13976): 95.7%
NEK2 (Homo sapiens, UniProt P51955): 109%
Cyclin-dependent kinase 5, with p25 (CDK5, Homo sapiens, UniProt Q00535): 95.9%
IKBKB (Homo sapiens, UniProt O14920): 94.8%
STK10 (Homo sapiens, UniProt O94804): 93.8%
MAPK9 (Homo sapiens, UniProt P45984): 93.5%

Sample 2 — technique: competition with immobilised ligand; concentration: 1 µM; endpoint: remaining binding
Structure (SMILES): CNC(=O)Nc1ccc2c(c1)[C@@]1(CC2)OC(=O)N(CC(=O)N(Cc2ccc(F)cc2)[C@@H](C)C(F)(F)F)C1=O
PIK3CA (Homo sapiens, UniProt P42336, E545A); cell-free assay: 97%
CDC42BPA (Homo sapiens, UniProt Q5VT25); cell-free assay: 98%
Tyrosine-protein kinase JAK1, JH2 (JAK1, Homo sapiens, UniProt P23458); cell-free assay: 85%
FLT3 (Homo sapiens, UniProt P36888, N841I); cell-free assay: 100%
PIM1 (Homo sapiens, UniProt P11309); cell-free assay: 100%
GRK2 (Homo sapiens, UniProt P25098); cell-free assay: 76%
MAP3K7 (Homo sapiens, UniProt O43318); cell-free assay: 81%
RET (Homo sapiens, UniProt P07949, V804M); cell-free assay: 100%
CDK5 (Homo sapiens, UniProt Q00535); cell-free assay: 79%
MAPK6 (Homo sapiens, UniProt Q16659); cell-free assay: 97%
PRKACA (Homo sapiens, UniProt P17612); cell-free assay: 99%
EPHB3 (Homo sapiens, UniProt P54753); cell-free assay: 86%
TEC (Homo sapiens, UniProt P42680); binding: 100%
PIK3CA (Homo sapiens, UniProt P42336, H1047L); cell-free assay: 96%
STK35 (Homo sapiens, UniProt Q8TDR2); cell-free assay: 85%
EGFR (Homo sapiens, UniProt P00533, G719C); cell-free assay: 100%
EPHA2 (Homo sapiens, UniProt P29317); cell-free assay: 100%
DAPK1 (Homo sapiens, UniProt P53355); cell-free assay: 100%
BMPR1A (Homo sapiens, UniProt P36894); binding: 100%
CDK9 (Homo sapiens, UniProt P50750); cell-free assay: 91%
PRPF4B (Homo sapiens, UniProt Q13523); cell-free assay: 90%
CSF1R (Homo sapiens, UniProt P07333); cell-free assay: 98%

Sample 3 — organism: Sarcocystis neurona; effect on: parasite activity; concentration: concentration not given; endpoint: activity class
Br.O=C1CC2(CCCC2)CC(=O)N1CCNCC1COc2ccccc2O1 (stereo not shown): inactive
CCN(CC)C(=O)C1(c2ccccc2)CC1CN.Cl (stereo not shown): inactive
C[C@H](N[C@@H](CCc1ccccc1)C(=O)O)C(=O)N1CCC[C@H]1C(=O)O: inactive
CC(=O)OCC(=O)[C@@]12OC(C)(C)O[C@@H]1C[C@H]1[C@@H]3C[C@H](F)C4=CC(=O)C=C[C@]4(C)[C@@]3(F)[C@@H](O)C[C@@]12C: inactive
Fc1ccc([C@@H]2CCNC[C@H]2COc2ccc3c(c2)OCO3)cc1.O=C(O)/C=C\C(=O)O: inactive
CC(C)(C)NCC(O)c1ccc(O)c(CO)c1.CC(C)(C)NCC(O)c1ccc(O)c(CO)c1.O=S(=O)(O)O (stereo not shown): inactive
C[C@H]1C[C@H]2[C@@H]3CCC4=CC(=O)C=C[C@]4(C)[C@@]3(Cl)[C@@H](O)C[C@]2(C)[C@@]1(O)C(=O)CO: inactive
CC1(C)S[C@@H]2[C@H](NC(=O)Cc3ccccc3)C(=O)N2[C@H]1C(=O)[O-].[K+]: inactive
Cl.Cn1c(NCCN(CCO)CCCc2ccc([N+](=O)[O-])cc2)cc(=O)n(C)c1=O: inactive
CN(CCOc1ccc(CC2SC(=O)NC2=O)cc1)c1ccccn1.Cl (stereo not shown): inactive
CCN(CC)CCNC(=O)c1cc(Cl)c(N)cc1OC.Cl: inactive
NC(=O)OCC(COC(N)=O)c1ccccc1.O: inactive
CN1CCC(=C2c3ccccc3CCc3sccc32)CC1.O=C(O)/C=C\C(=O)O: inactive
O=C1c2c(O)ccc(O)c2C(=O)c2c(NCCNCCO)ccc(NCCNCCO)c21: inactive

Mixed results — cell line: L444P/L444P Gaucher fibroblasts; technique: 4-MUG hydrolysis in lysate; time: 72 h; relative to: vehicle
Cc1cccc(/C=N/Nc2cc(N3CCOCC3)nc(OCCc3ccccn3)n2)c1
enzyme activity (50 nM): 174% and 169% and 144% and 167% and 173% and 186%

O=C(COc1ccc(Cl)cc1)NC1CCC(NC(=O)COc2ccc(Cl)cc2)CC1 (stereo not shown)
enzyme activity (0.2 µM): 123% and 124% and 112% and 116% and 107% and 120%
